Assay results collected from several papers.
Parts stem from different laboratories: compare values within a part only. Substitutions count along the parent as printed.

Sample 1
Target: CCNF, cyclin fold, Cln2 fusion (human)
Technique: yeast growth competition, sequencing
Sample: yeast
Notes: strong parent motif
Baseline: not given
Direction: higher = stronger binding
Starting sequence: SLBP docking peptide (human); ARYKRKLLINDFG
`ARYKRKLLINLFG [D11L]`: “normalised enrichment score” 3.19.
Under “normalised enrichment score”, `SRYKRKLLINDFG [A1S]` is recorded as 1.49.
Under “normalised enrichment score”, `ARYKRKLLINDFY [G13Y]` is recorded as 1.32.
For `ARYKRKLLANDFG [I9A]`, “normalised enrichment score” read 1.62.
For `ARYKRKLLHNDFG [I9H]`, “normalised enrichment score” read 1.27.
`AKYKRKLLINDFG [R2K]`: “normalised enrichment score” 2.42.
`ARYKRCLLINDFG [K6C]`: “normalised enrichment score” 2.41.
For `ARYKRDLLINDFG [K6D]`, “normalised enrichment score” read 0.323.

Sample 2
Target: Histone acetyltransferase KAT6A, winged helix 2, GST fusion (KAT6A, Homo sapiens, UniProt Q92794, residues 85-181)
Technique: protein binding microarray
Form: double-stranded DNA, one strand shown
Sample: in vitro
Concentration: not given
Notes: 8-mer, flanks averaged, mean of 2 arrays, mostly near background
Baseline: not given
Direction: higher = stronger binding
Construct (chain): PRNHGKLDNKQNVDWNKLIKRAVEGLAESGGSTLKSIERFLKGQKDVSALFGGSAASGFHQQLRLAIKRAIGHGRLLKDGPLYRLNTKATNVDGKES
The E-score of `GTGGGCGA` is reported as 0.145.
For `GAAGATCC`, the E-score was -0.0937.
The E-score of `AGCACAAA` is reported as 0.228.
`CACCAGTC` gave an E-score of -0.18.
`AAAAATAG` has an E-score of -0.0299.
With `ACCGTCAC` the E-score was -0.0469.
The E-score of `ATGGTTGG` is reported as -0.0167.
`GCGCCCGC` has an E-score of 0.267.
`AGATGCCC` has an E-score of -0.0206.
For `GACATCCA`, the E-score was 0.0389.
With `TACATATA` the E-score was 0.0517.

Sample 3
Target: Sal-like protein 4, full length isoform B (SALL4, Homo sapiens, UniProt Q9UJQ4-2, residues 1-616)
Technique: universal PBM
Form: double-stranded DNA, one strand shown
Sample: in vitro
Concentration: not given
Notes: 8-mer, flanks averaged, mean of replicates
Direction: higher = stronger binding
For `CTGACGCA`, the E-score was -0.191.
For `CTTCTATC`, the E-score was -0.0672.
With `AATCAGGC` the E-score was -0.0617.
`CGACATGC` has an E-score of -0.0242.
For `AGTGACTA`, the E-score was 0.0798.
`CTCTTGCC` has an E-score of -0.0679.
`CGGAGGAG` gave an E-score of -0.196.
With `AGATGTAA` the E-score was 0.315.
For `GCACGGAA`, the E-score was -0.181.
`CCAAGGCC` has an E-score of -0.197.
`GGCCTTAC` has an E-score of -0.133.

Single results of other studies
`PhoQ, residues 284 288 289 292 302 303 ASTSDA` gave a fold induction of 8.85 (PhoP, residues 12 14 15 18 19 NQFFI (Escherichia coli, UniProt P23836); Sort-seq, measured: YFP reporter; E. coli; PhoQ-PhoP variant library, together with: 10 µM Mg2+; baseline: high Mg2+ state, higher = stronger signaling).

A few entries again (sample 3):
`CGGAGGAG` gave an E-score of -0.196.
For `CTGACGCA`, the E-score was -0.191.
With `AATCAGGC` the E-score was -0.0617.
With `AGATGTAA` the E-score was 0.315.
